Assay results pooled from the literature.
Numbered parts are unrelated; each lists some results of a single study. “And” joins repeats or separate records; there may be more than shown.
Sequence of UniProt O60674 (whole entry, looked up): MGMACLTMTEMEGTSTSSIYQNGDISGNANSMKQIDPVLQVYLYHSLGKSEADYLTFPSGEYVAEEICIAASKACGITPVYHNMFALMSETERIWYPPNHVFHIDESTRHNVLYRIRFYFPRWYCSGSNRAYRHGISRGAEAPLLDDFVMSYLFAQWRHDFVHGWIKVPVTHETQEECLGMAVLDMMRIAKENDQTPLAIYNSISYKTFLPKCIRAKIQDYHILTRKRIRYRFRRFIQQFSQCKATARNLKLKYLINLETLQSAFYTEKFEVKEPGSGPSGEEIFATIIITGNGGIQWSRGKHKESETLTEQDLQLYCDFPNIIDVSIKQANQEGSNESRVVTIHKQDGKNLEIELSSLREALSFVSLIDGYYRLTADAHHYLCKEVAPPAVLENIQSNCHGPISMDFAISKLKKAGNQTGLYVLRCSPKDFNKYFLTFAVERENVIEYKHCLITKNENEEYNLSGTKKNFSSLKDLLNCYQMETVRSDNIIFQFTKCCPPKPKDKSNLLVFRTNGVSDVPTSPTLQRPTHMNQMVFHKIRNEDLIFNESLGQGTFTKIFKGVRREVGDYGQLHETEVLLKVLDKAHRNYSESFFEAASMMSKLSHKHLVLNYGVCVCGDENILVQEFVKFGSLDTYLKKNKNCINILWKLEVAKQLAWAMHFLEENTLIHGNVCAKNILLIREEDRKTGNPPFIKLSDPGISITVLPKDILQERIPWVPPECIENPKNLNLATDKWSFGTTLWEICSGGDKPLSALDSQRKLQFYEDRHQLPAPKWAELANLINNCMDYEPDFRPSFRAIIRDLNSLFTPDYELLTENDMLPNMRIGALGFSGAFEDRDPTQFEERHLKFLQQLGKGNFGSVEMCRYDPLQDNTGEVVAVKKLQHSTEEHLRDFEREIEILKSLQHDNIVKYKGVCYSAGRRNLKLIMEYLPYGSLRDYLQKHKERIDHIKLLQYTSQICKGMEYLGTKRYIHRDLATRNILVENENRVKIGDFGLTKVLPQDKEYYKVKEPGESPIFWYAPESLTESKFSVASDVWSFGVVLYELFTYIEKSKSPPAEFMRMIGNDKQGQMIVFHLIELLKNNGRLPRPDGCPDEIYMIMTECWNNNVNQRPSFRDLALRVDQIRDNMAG
Sequence of UniProt Q86Z02 (whole entry, looked up): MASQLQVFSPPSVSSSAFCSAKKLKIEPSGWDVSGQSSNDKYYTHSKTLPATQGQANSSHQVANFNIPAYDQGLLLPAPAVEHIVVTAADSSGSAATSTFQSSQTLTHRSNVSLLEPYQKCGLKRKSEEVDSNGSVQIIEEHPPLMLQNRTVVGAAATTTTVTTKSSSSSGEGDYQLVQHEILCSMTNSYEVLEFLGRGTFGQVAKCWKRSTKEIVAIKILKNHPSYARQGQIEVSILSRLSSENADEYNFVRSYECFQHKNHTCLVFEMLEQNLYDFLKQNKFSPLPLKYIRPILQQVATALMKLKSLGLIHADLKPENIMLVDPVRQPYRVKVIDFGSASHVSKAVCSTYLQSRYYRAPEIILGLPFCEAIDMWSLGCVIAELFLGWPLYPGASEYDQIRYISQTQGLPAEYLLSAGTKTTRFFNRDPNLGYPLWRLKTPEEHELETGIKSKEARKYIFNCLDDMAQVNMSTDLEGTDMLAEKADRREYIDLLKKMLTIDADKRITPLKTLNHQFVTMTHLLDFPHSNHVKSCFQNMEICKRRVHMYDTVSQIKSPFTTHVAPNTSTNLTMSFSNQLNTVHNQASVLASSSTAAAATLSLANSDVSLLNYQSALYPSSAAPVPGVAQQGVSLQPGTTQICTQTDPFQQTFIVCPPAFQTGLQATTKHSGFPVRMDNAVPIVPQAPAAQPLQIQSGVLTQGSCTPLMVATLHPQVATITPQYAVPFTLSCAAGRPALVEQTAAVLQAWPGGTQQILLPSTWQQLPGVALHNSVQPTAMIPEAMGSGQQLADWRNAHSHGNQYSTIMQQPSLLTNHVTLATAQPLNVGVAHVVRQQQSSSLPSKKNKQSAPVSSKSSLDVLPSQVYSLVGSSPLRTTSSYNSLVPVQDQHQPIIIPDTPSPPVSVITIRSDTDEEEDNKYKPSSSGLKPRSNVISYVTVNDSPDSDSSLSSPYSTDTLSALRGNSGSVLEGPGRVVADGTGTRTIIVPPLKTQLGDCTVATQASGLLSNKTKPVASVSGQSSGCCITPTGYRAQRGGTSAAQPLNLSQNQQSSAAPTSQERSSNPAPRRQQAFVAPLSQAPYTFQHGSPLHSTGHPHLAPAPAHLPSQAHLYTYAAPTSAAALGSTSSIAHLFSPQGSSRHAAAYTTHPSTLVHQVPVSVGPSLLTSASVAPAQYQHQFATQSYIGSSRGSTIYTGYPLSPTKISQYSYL
Sequence of UniProt Q9H2X6 (whole entry, looked up): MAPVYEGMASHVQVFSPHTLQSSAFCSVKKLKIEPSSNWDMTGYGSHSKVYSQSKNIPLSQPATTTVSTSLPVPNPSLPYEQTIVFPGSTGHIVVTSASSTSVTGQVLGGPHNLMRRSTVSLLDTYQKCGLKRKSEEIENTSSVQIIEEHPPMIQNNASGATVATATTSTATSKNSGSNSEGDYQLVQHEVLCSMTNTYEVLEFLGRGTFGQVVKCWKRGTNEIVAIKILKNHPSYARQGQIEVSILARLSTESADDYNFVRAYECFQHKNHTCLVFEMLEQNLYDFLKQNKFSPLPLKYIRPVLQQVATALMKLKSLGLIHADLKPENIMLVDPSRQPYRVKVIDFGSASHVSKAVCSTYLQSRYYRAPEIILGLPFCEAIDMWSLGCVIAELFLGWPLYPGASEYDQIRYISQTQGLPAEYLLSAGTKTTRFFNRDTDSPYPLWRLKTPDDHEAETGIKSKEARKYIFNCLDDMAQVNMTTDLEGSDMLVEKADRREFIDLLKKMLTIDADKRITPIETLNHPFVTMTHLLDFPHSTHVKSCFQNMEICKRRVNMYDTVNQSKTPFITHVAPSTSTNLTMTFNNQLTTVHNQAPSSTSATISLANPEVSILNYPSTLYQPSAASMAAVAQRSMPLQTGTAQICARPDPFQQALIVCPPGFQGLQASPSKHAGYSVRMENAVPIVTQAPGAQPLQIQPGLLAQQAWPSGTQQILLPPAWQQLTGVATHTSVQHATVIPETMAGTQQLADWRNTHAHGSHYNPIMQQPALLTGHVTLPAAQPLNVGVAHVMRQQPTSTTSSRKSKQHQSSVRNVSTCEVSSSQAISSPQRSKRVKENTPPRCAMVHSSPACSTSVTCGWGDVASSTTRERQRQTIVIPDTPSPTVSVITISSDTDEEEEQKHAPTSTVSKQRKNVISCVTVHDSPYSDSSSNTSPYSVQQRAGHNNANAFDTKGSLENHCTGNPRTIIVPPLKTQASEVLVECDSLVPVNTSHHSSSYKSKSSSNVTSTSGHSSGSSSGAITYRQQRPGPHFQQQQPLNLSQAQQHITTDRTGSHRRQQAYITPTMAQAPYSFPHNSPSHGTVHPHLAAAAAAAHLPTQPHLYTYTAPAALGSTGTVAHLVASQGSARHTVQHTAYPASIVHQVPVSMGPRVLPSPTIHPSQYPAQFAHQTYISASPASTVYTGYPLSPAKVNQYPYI
Sequence of UniProt P52564 (whole entry, looked up): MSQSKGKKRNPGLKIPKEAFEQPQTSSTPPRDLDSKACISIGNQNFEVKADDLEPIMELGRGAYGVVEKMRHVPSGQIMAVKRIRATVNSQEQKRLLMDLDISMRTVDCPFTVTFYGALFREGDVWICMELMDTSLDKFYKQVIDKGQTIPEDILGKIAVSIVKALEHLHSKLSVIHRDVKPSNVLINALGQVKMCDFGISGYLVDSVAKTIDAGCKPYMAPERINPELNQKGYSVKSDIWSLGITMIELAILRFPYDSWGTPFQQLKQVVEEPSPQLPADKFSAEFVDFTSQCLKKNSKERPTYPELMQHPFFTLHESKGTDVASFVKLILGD
Sequence of UniProt P22455 (whole entry, looked up): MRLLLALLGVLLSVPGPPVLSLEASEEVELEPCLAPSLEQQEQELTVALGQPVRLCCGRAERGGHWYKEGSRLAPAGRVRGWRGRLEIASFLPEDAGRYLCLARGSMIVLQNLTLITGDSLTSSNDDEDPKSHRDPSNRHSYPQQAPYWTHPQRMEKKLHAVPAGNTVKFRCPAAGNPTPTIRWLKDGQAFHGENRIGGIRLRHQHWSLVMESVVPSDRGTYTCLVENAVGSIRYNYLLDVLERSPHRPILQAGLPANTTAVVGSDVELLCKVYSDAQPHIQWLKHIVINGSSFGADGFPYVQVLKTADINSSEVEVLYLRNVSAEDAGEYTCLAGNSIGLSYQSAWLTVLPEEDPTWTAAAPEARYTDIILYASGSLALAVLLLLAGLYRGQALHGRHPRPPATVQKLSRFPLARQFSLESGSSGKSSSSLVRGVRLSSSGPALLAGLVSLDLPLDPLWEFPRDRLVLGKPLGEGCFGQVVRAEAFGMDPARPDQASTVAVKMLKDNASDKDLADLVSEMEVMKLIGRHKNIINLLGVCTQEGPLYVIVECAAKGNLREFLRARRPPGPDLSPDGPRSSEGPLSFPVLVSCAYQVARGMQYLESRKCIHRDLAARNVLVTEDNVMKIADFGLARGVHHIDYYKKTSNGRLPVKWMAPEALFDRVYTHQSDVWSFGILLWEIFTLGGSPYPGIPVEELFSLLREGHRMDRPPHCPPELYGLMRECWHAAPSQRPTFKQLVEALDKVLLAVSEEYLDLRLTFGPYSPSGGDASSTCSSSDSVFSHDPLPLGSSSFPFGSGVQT
Sequence of UniProt P51817 (whole entry, looked up): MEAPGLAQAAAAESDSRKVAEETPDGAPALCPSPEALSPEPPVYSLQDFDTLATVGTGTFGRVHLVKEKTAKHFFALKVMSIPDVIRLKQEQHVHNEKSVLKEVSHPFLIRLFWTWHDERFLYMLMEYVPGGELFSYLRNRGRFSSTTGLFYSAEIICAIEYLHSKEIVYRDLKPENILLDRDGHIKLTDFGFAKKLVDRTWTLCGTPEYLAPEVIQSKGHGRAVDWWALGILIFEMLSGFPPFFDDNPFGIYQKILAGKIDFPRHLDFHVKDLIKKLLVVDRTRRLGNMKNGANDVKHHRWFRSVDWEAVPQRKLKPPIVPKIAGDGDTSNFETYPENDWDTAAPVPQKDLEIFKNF

Study 1 — read-out: enzyme activity; mode: inhibitor; tested at: 0.5 µM; reference: control
Compound: O=c1c(-c2ccc(F)cc2)c(-c2ccncc2)[nH]n1-c1ccc(Cl)cc1
| target | remaining activity |
| --- | --- |
| Tyrosine-protein kinase Fes/Fps (FES, Homo sapiens, UniProt P07332) | 92.3% |
| Tyrosine-protein kinase JAK2 (JAK2, Homo sapiens, UniProt O60674) | 95.1% |
| Receptor tyrosine-protein kinase erbB-2 (ERBB2, Homo sapiens, UniProt P04626) | 103% |

Study 2 — cell line: mouse MPNST tumor cells; technique: high-content immunofluorescence imaging; item: nuclear SOX9; tested at: 10 µM; time: 12 h; notes: mean of 2 replicates; reference: DMSO control; direction: higher = more nuclear SOX9
| SMILES | nuclear SOX9 intensity |
| --- | --- |
| N#Cc1cccc(-c2nc(-c3cccnc3)no2)c1 | 102 % of DMSO |
| O=C(CCCc1ccc(-c2ccccc2F)cc1)Nc1ccc(O)cc1 | 161 % of DMSO |
| CC(C(=O)O)c1ccc(C(=O)c2ccccc2)s1 (stereo not shown) | 104 % of DMSO |
| CC(=O)N[C@@H](Cc1c[nH]c2ccccc12)C(=O)OCc1cc(C(F)(F)F)cc(C(F)(F)F)c1 | 84.3 % of DMSO |
| O=C(O)c1cc(O)c2ccc(Cl)cc2n1 | 97.1 % of DMSO |
| CC(C)N1CCN(c2ccc(C(=O)c3c(-c4ccc(O)cc4)sc4cc(O)ccc34)cc2)CC1 | 207 % of DMSO |
| CCCCC(=O)O[C@H]1CC[C@H]2[C@@H]3CCc4cc(O)ccc4[C@H]3CC[C@]12C | 98.2 % of DMSO |
| CCCCN(CCCC)CCC(O)c1cc2c(Cl)cc(Cl)cc2c2cc(C(F)(F)F)ccc12 (stereo not shown) | 133 % of DMSO and 151 % of DMSO |

Study 3 — mode: inhibitor; tested at: 1 µM
SMILES: C=CC(=O)N1CCC([C@@H]2CCNc3c(C(N)=O)c(-c4ccc(Oc5ccccc5)cc4)nn32)CC1
| target | assay | inhibition |
| --- | --- | --- |
| eIF-2-alpha kinase GCN2 (EIF2AK4, Homo sapiens, UniProt Q9P2K8, S808G) | – | 10% |
| Ribosomal protein S6 kinase alpha-5, N-terminal kinase domain (RPS6KA5, Homo sapiens, UniProt O75582) | – | 7% |
| Serine/threonine-protein kinase TAO2 (TAOK2, Homo sapiens, UniProt Q9UL54) | enzyme activity | 26% |
| Myosin light chain kinase family member 4 (MYLK4, Homo sapiens, UniProt Q86YV6) | – | 3% |

Study 4 — technique: competition with immobilised ligand; tested at: 0.1 µM
Compound: C[C@@H]1CN(c2cc(-c3n[nH]c4ccc(OC5(C)CC5)cc34)ncn2)C[C@H](C)O1
| target | assay | remaining binding [%] |
| --- | --- | --- |
| Dual specificity mitogen-activated protein kinase kinase 6 (MAP2K6, Homo sapiens, UniProt P52564) | cell-free assay | 100 |
| Mast/stem cell growth factor receptor Kit (KIT, Homo sapiens, UniProt P10721) | cell-free assay | 82 |
| Serine/threonine-protein kinase 3 (STK3, Homo sapiens, UniProt Q13188) | cell-free assay | 78 |
| Epidermal growth factor receptor (EGFR, Homo sapiens, UniProt P00533, del747-752/P753S) | cell-free assay | 69 |
| Serine/threonine-protein kinase DCLK3 (DCLK3, Homo sapiens, UniProt Q9C098) | cell-free assay | 92 |
| Serine/threonine-protein kinase Sgk3 (SGK3, Homo sapiens, UniProt Q96BR1) | cell-free assay | 84 |
| Serine/threonine-protein kinase NLK (NLK, Homo sapiens, UniProt Q9UBE8) | cell-free assay | 100 |
| TGF-beta receptor type-2 (TGFBR2, Homo sapiens, UniProt P37173) | cell-free assay | 100 |
| Ephrin type-A receptor 6 (EPHA6, Homo sapiens, UniProt Q9UF33) | cell-free assay | 90 |
| Serine/threonine-protein kinase TAO3 (TAOK3, Homo sapiens, UniProt Q9H2K8) | cell-free assay | 69 |
| cAMP-dependent protein kinase catalytic subunit PRKX (PRKX, Homo sapiens, UniProt P51817) | cell-free assay | 86 |
| Rho-associated protein kinase 1 (ROCK1, Homo sapiens, UniProt Q13464) | cell-free assay | 80 |
| Mitogen-activated protein kinase 8 (MAPK8, Homo sapiens, UniProt P45983) | cell-free assay | 63 |
| Activin receptor type-1B (ACVR1B, Homo sapiens, UniProt P36896) | cell-free assay | 90 |
| Fibroblast growth factor receptor 4 (FGFR4, Homo sapiens, UniProt P22455) | cell-free assay | 100 |
| Homeodomain-interacting protein kinase 1 (HIPK1, Homo sapiens, UniProt Q86Z02) | cell-free assay | 69 |
| Tyrosine-protein kinase ABL1, non-phosphorylated (ABL1, Homo sapiens, UniProt P00519, F317I) | binding | 74 |
| Homeodomain-interacting protein kinase 2 (HIPK2, Homo sapiens, UniProt Q9H2X6) | cell-free assay | 80 |
| Tyrosine-protein kinase receptor Tie-1 (TIE1, Homo sapiens, UniProt P35590) | cell-free assay | 67 |

Study 5 — host: human; medium: microsomes or S9; tested at: 2 µM; time: 0.5 h
| SMILES | remaining compound |
| --- | --- |
| COC(=O)c1[nH]cc(C(=O)C2CCNCC2)c1C | 85.8% |
| c1ccc(-c2nc3ccccc3nc2N2CCCC2)cc1 | 22.7% |
| O=C(CCc1ccccc1Cl)NCc1[nH]ncc1Br | 80% |
| CC(C)OC(=O)c1ccc(NC(=O)CCCC(=O)O)cc1 | 99.1% |
| CCOc1ccc(NC(=O)Nc2ccc(-c3nnc(-c4ccccc4)o3)cc2)cc1 | > 100% |
| COc1ccc(NC(=O)c2cc3c(=O)n4cc(C)ccc4nc3n2Cc2ccccc2)c(OC)c1 | 90.1% |

A few entries again (study 3):
| target | assay | inhibition |
| --- | --- | --- |
| eIF-2-alpha kinase GCN2 (EIF2AK4, Homo sapiens, UniProt Q9P2K8, S808G) | – | 10% |
| Ribosomal protein S6 kinase alpha-5, N-terminal kinase domain (RPS6KA5, Homo sapiens, UniProt O75582) | – | 7% |
| Serine/threonine-protein kinase TAO2 (TAOK2, Homo sapiens, UniProt Q9UL54) | enzyme activity | 26% |
| Myosin light chain kinase family member 4 (MYLK4, Homo sapiens, UniProt Q86YV6) | – | 3% |
